Results gathered from unrelated publications.
Protocols differ between the studies behind these lines. Several values in a cell are separate wells, animals, samples, runs or records.
Cell line: HEK293

Compound = COc1cc(NC(=O)c2cccc(C#N)c2)ccc1S(N)(=O)=O; effect on = cell viability; technique = MTT; time = 48 h; IC50 = > 100 µM
Compound = CN(c1ccc(NC(=O)c2ccc(C(=N)N)cc2)cc1OCc1ccc(C(F)(F)F)cc1)S(=O)(=O)C(F)(F)F; effect on = cell growth; technique = MTT; time = 48 h; IC50 = > 500 µM
Compound = CC(C)C[C@H](NC(=O)[C@H](Cc1ccc(O)cc1)NC(=O)[C@@H]1CCCN1C(=O)[C@H](CCCNC(=N)N)NC(=O)[C@@H]1CCCN1C(=O)[C@H](CCCCN)NC(=O)[C@H](CC(=O)O)NC(=O)[C@@H]1CCCN1C(=O)[C@H](CCCNC(=N)N)NC(=O)C1(N)CCCCC1)C(=O)N1CCC[C@H]1C(=O)N[C@@H](CCCNC(=N)N)C(=O)N1CCC[C@H]1C(=O)N[C@@H](CCCNC(=N)N)C(=O)N1CCC[C@H]1C(=O)N1CCC[C@H]1C(=O)N[C@@H](CCCNC(=N)N)C(=O)N1CCC[C@H]1C(=O)N[C@H](C(=O)N[C@@H](CCCNC(=N)N)C(=O)N[C@@H](CSSC[C@H](NC(=O)[C@H](CCCNC(=N)N)NC(=O)[C@@H](NC(=O)[C@@H]1CCCN1C(=O)[C@H](CCCNC(=N)N)NC(=O)[C@@H]1CCCN1C(=O)[C@@H]1CCCN1C(=O)[C@H](CCCNC(=N)N)NC(=O)[C@@H]1CCCN1C(=O)[C@H](CCCNC(=N)N)NC(=O)[C@@H]1CCCN1C(=O)[C@H](CC(C)C)NC(=O)[C@H](Cc1ccc(O)cc1)NC(=O)[C@@H]1CCCN1C(=O)[C@H](CCCNC(=N)N)NC(=O)[C@@H]1CCCN1C(=O)[C@H](CCCCN)NC(=O)[C@H](CC(=O)O)NC(=O)[C@@H]1CCCN1C(=O)[C@H](CCCNC(=N)N)NC(=O)C1(N)CCCCC1)C(C)C)C(=O)NN)C(=O)NN)C(C)C; effect on = cytotoxicity; notes = highest tested 125 µg/mL; IC50 = > 125 µg/mL
Compound = COc1cc(NC(=O)c2ccc(C#N)cc2)ccc1S(N)(=O)=O; effect on = cell viability; technique = MTT; time = 48 h; IC50 = > 100 µM
Compound = COc1ccc(OC)c(COc2cc(NC(=O)c3ccc4c(c3)OCO4)ccc2NC(=N)N)c1; effect on = cell growth; technique = MTT; time = 48 h; IC50 = > 500 µM
Compound = COc1cc(NC(=O)c2ccc(C(F)(F)F)cc2C(F)(F)F)ccc1S(N)(=O)=O; effect on = cell viability; technique = MTT; time = 48 h; IC50 = > 100 µM
Compound = Nc1ccn([C@@H]2O[C@H](CO)[C@@H](O)C2(F)F)c(=O)n1; effect on = cell viability; technique = MTT; IC50 = 0.1 µM
Compound = CN(c1ccc(NC(=O)c2cccc(C(=N)N)c2)cc1OCc1ccc(C(F)(F)F)cc1)S(=O)(=O)C(F)(F)F; effect on = cell growth; technique = MTT; time = 48 h; IC50 = > 500 µM
Compound = CC1CCC(C(C)C)C(OC2=C(Cl)C(=O)c3ccccc3C2=O)C1 (stereo not drawn); technique = MTT; time = 24 h; IC50 = > 50 µg/mL
Compound = CN(c1ccc(NC(=O)c2cccc(C(=N)N)c2)cc1OCc1ccc(C(F)(F)F)cc1)S(=O)(=O)Cc1ccccc1; effect on = cell growth; technique = MTT; time = 48 h; IC50 = > 500 µM
Compound = Cc1ccc(C(C)C)c(OC2=C(Cl)C(=O)c3ccccc3C2=O)c1; technique = MTT; time = 24 h; IC50 = > 100 µg/mL
Compound = COc1cccc2c1C(=O)c1c(O)c3c(c(O)c1C2=O)C[C@@](O)(C(=O)CO)C[C@@H]3O[C@H]1C[C@H](N)[C@H](O)[C@H](C)O1; effect on = cell growth; technique = sulforhodamine B; IC50 = 42.6 µM and 34.8 µM and 38.7 µM
Compound = N=C(N)Nc1ccc(NC(=O)c2ccc(Cl)c(Cl)c2)cc1OCc1ccc(C(F)(F)F)cc1; effect on = cell growth; technique = MTT; time = 48 h; IC50 = > 500 µM
Compound = CCOc1ccc(C(=O)Nc2ccc(S(N)(=O)=O)c(OC)c2)cc1; effect on = cell viability; technique = MTT; time = 48 h; IC50 = > 100 µM
Compound = C#CCCCC[C@H](C)C[C@@H](C)C(=O)N1C(=O)OC[C@H]1Cc1ccccc1; effect on = cell growth; technique = sulforhodamine B; IC50 = 318 µM and 283 µM and 280 µM

For quick reference, copied from above:
Compound = CN(c1ccc(NC(=O)c2cccc(C(=N)N)c2)cc1OCc1ccc(C(F)(F)F)cc1)S(=O)(=O)C(F)(F)F; effect on = cell growth; technique = MTT; time = 48 h; IC50 = > 500 µM
